Assay results pooled from the literature.
Organism: Pseudomonas aeruginosa

| SMILES | assay | system | setting | MIC |
| --- | --- | --- | --- | --- |
| CC1(C)S[C@@H]2[C@H](NC(=O)[C@H](N)c3ccccc3)C(=O)N2[C@H]1C(=O)O | – | ATCC BAA-2108, resistant | 18 h, 37 °C, dark | > 128 µM |
| C=C/C=C(\C)CC[C@@H]1C[C@@H](O)CC(=O)O1 | broth microdilution | KCCM 11321 | 16 h, 37 °C, Mueller-Hinton broth | 64 µg/mL |
| CC(C)(O/N=C(\C(=O)N[C@@H]1C(=O)N2C(C(=O)[O-])=C(C[n+]3ccccc3)CS[C@H]12)c1csc(N)n1)C(=O)O | – | PER-producing clinical isolate | – | > 128 µg/mL |
| O=C(Cc1ccccc1)N[C@@H]1C(=O)N2C(C(=O)O)=C(CSc3cccc4cccnc34)C[S+]([O-])[C@H]12 (stereo partly shown) | – | – | – | > 128 µg/mL |
| CN(C)c1ccc2nc3ccc(=[N+](C)C)cc-3sc2c1 | – | ATCC BAA-2108, resistant | 18 h, 37 °C, dark | > 128 µM |
| CNC(C)C1CCC(N)C(OC2C(N)CC(N)C(OC3OCC(C)(O)C(NC)C3O)C2O)O1 (stereo not shown) | – | clinical isolate RKI-No_493/15 | – | > 8 µg/mL |
| Cn1cc(NC(=O)C(CC(N)=O)NC(=O)c2ccc(NC(=O)c3ccc(C#N)cc3)cc2)cc1-c1nc2ccc(C(=O)Nc3ccc(C(=O)O)cc3)c(O)c2[nH]1 (stereo not shown) | – | PA14 ΔmexAB | – | > 64 µg/mL |
| NC[C@H]1O[C@H](O[C@H]2[C@H](O)[C@@H](O[C@H]3O[C@H](CO)[C@@H](O)[C@H](N)[C@H]3O)[C@H](N)C[C@@H]2N)[C@H](O)[C@@H](O)[C@@H]1O | broth microdilution | CICC 21625 | – | 85.8 µM |
| NC[C@H]1O[C@H](O[C@H]2[C@H](O)[C@@H](O[C@H]3O[C@H](CO)[C@@H](O)[C@H](N)[C@H]3O)[C@H](N)C[C@@H]2N)[C@H](O)[C@@H](O)[C@@H]1O | broth microdilution | PAO1 | – | 54.9 µM |
| CO[C@@H](C(N)=O)[C@H](NC(=O)c1ccc(NC(=O)c2ccc(C#N)cc2)cc1)C(=O)Nc1ccc(C(=O)Nc2ccc(C(=O)Nc3ccc(C(=O)O)cc3)c(O)c2OC(C)C)cc1 | – | PA14 ΔmexAB | – | < 0.03 µg/mL |
| CC(C)C[C@@H]1NC(=O)[C@@H](Cc2ccccc2)NC(=O)[C@H](CCN)NC(=O)[C@@H](NC(=O)[C@H](CCN)NC(=O)[C@@H](N)[C@@H](C)O)CCNC(=O)[C@H]([C@@H](C)O)NC(=O)[C@H](CCN)NC(=O)[C@H](CCN)NC1=O | – | ATCC 27853 | in combination, checkerboard, together with: rifampicin | 0.78 µg/mL |
| CCN1CCN(C(=O)N[C@@H](C(=O)N[C@@H]2C(=O)N3[C@@H]2SC(C)(C)[C@@H]3C(=O)O)c2ccccc2)C(=O)C1=O | broth microdilution | clinical isolate, Mueller-Hinton broth | 24 h, 37 °C | > 400 µM |
| N=C(N)c1ccc(OCCC(CCOc2ccc(C(=N)N)cc2)c2ccccc2)cc1 (stereo not shown) | – | ATCC 27853 | compound alone | > 200 µg/mL |
| CCN1CCN(C(=O)N[C@@H](C(=O)N[C@@H]2C(=O)N3[C@@H]2SC(C)(C)[C@@H]3C(=O)O)c2ccccc2)C(=O)C1=O | – | PER-producing clinical isolate | – | > 128 µg/mL |
| CC[C@H](C)[C@H](NC(=O)[C@H](CCC(=O)O)NC(=O)[C@H](CS)NC(=O)[C@@H](NC(=O)CNC(=O)[C@H](CO)NC(=O)[C@H](CC(C)C)NC(=O)[C@H](CO)NC(=O)[C@@H](N)CCC(=O)O)C(C)C)C(=O)N[C@@H](CO)C(=O)NCC(=O)N[C@@H](CCCNC(=N)N)C(=O)N[C@@H](CC(C)C)C(=O)N[C@@H](Cc1ccc(O)cc1)C(=O)N[C@@H](CCCNC(=N)N)C(=O)N[C@@H](CC(C)C)C(=O)N[C@@H](CS)C(=O)N[C@@H](CS)C(=O)N[C@@H](CCCNC(=N)N)C(=O)O | broth turbidity | ATCC 27853 | – | > 100 µM |
| CC(C)(CN)CNCc1nc2ccccc2n1CCOc1ccccc1 | – | ATCC 27853 | – | > 128 µg/mL |
| O=[N+]([O-])c1ccc(O)c2ncccc12 | – | – | – | > 100 µM |
| O=C(Cc1ccccc1)N[C@@H]1C(=O)N2C(C(=O)O)=C(CSc3cccc4cccnc34)CS[C@H]12 | – | – | – | > 128 µg/mL |
| CNC(C)C1CCC(N)C(OC2C(N)CC(N)C(OC3OCC(C)(O)C(NC)C3O)C2O)O1 (stereo not shown) | broth microdilution, absorbance | clinical isolate P.A37, RPMI with 1640% FBS | 24 h, 37 °C | 12.5 µM |
| O=C(O)c1cn(C2CC2)c2cc(N3CCNCC3)c(F)cc2c1=O | – | CIP 27853, Mueller Hinton broth | overnight, 37 °C | > 512 µg/mL |
| N=C(N)c1ccc(OCc2cccc(COc3ccc(C(=N)N)cc3)c2)cc1 | – | ATCC 27853 | compound alone | > 200 µg/mL |
| CC[C@H](C)CCCCC(=O)N[C@@H](CCN)C(=O)N[C@H](C(=O)N[C@@H](CCN)C(=O)N[C@H]1CCNC(=O)[C@H]([C@@H](C)O)NC(=O)[C@H](CCN)NC(=O)[C@H](CCN)NC(=O)[C@H](CC(C)C)NC(=O)[C@@H](CC(C)C)NC(=O)[C@H](CCN)NC1=O)[C@@H](C)O | broth microdilution | ATCC 27853, cation-adjusted Mueller-Hinton broth | – | 0.428 µM |

Some of these lines once more:
| SMILES | assay | system | setting | MIC |
| --- | --- | --- | --- | --- |
| CC(C)(CN)CNCc1nc2ccccc2n1CCOc1ccccc1 | – | ATCC 27853 | – | > 128 µg/mL |
